Measurements collected from several papers.
Parts stem from different laboratories: compare values within a part only. Substitutions count along the parent as printed.
Chain of UniProt Q15303 (whole entry, looked up): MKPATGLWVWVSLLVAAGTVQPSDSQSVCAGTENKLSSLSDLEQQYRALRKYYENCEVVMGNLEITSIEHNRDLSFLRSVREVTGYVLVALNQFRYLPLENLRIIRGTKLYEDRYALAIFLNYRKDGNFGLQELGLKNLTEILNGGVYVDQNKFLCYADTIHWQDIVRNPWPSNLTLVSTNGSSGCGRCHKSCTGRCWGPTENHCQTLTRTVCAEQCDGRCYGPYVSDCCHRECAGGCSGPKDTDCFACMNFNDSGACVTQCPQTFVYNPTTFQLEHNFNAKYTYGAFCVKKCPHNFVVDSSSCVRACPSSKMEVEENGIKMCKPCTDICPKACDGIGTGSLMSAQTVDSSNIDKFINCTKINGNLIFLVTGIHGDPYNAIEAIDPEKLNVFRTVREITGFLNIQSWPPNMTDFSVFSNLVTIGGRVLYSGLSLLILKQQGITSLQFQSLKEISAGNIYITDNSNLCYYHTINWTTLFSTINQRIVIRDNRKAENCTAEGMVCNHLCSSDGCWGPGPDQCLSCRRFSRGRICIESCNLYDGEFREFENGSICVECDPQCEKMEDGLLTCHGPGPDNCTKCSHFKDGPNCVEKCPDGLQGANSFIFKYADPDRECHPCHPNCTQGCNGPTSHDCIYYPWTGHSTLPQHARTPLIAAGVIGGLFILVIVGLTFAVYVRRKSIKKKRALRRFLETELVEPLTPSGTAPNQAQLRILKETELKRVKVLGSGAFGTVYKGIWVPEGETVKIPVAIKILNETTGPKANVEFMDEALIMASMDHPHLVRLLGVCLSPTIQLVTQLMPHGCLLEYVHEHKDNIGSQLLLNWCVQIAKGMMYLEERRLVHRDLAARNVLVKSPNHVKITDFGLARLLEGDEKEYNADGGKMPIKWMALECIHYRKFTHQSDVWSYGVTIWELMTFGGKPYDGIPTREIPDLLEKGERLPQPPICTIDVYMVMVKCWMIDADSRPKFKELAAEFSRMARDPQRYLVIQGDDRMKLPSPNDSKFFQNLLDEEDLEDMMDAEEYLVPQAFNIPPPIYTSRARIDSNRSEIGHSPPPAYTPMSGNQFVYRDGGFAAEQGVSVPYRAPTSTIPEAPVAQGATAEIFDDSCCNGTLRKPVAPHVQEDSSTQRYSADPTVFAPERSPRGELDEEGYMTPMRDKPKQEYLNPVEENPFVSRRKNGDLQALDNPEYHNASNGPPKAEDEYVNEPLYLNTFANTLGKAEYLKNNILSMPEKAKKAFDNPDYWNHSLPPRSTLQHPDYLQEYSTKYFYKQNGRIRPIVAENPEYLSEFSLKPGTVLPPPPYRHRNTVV
Chain of UniProt Q8NEV4 (whole entry, looked up): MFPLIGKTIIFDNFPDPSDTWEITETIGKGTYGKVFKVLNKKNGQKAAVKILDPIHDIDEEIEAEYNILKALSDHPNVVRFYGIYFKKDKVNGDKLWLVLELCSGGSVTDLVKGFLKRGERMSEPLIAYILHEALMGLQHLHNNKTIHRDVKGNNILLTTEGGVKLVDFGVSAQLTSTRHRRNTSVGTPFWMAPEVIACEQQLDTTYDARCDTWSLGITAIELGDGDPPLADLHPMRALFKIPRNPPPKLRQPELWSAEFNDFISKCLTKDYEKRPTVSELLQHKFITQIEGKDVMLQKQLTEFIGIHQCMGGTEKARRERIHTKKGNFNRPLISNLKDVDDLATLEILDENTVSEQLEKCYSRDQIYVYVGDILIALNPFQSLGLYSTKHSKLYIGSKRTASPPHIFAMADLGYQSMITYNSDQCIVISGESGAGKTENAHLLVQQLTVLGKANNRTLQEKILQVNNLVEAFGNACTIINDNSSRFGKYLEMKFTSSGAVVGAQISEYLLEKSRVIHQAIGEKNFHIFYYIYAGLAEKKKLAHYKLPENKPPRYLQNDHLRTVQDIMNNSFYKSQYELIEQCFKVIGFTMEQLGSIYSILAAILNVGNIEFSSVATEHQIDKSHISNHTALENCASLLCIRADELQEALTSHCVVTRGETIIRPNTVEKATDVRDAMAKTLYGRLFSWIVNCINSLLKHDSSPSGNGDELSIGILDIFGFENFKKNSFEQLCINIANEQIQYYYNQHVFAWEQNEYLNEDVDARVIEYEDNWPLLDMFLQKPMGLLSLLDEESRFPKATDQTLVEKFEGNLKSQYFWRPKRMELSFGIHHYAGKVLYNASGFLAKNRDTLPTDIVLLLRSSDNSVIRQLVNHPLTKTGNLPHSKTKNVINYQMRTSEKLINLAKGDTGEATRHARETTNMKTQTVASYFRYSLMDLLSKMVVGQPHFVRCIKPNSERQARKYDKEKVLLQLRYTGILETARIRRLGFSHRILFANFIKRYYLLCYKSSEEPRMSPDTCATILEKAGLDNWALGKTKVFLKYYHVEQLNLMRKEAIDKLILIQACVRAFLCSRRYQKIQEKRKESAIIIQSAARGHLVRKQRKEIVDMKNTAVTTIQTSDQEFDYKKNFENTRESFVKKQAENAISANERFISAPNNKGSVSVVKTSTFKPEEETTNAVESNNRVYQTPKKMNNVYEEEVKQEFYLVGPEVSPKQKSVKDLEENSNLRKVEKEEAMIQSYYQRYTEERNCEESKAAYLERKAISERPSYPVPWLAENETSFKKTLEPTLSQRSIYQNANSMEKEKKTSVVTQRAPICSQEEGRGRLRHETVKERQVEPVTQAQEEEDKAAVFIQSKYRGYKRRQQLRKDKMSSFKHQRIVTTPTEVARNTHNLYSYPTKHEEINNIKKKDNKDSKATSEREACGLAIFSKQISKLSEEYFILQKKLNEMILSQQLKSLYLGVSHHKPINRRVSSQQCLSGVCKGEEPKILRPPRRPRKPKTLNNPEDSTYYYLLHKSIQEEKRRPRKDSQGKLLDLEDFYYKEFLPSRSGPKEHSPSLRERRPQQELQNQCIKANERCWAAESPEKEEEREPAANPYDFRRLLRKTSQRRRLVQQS
Chain of UniProt P20794 (whole entry, looked up): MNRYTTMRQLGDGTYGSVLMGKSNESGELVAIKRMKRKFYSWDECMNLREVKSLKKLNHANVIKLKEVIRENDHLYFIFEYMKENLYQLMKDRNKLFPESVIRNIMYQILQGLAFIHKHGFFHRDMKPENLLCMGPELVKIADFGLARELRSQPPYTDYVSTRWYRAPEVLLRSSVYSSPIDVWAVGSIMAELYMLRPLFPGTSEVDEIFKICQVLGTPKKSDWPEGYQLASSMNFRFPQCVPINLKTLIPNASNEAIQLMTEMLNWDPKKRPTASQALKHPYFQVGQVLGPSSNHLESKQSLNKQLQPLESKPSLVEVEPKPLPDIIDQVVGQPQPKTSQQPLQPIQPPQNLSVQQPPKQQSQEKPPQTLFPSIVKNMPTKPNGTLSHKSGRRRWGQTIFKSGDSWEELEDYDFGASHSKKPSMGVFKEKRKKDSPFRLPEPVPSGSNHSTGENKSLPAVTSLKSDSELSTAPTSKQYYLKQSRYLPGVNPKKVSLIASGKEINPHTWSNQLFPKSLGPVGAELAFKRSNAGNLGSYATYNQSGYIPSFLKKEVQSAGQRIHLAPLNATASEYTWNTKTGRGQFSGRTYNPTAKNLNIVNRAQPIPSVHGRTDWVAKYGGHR
Chain of UniProt O15075 (whole entry, looked up): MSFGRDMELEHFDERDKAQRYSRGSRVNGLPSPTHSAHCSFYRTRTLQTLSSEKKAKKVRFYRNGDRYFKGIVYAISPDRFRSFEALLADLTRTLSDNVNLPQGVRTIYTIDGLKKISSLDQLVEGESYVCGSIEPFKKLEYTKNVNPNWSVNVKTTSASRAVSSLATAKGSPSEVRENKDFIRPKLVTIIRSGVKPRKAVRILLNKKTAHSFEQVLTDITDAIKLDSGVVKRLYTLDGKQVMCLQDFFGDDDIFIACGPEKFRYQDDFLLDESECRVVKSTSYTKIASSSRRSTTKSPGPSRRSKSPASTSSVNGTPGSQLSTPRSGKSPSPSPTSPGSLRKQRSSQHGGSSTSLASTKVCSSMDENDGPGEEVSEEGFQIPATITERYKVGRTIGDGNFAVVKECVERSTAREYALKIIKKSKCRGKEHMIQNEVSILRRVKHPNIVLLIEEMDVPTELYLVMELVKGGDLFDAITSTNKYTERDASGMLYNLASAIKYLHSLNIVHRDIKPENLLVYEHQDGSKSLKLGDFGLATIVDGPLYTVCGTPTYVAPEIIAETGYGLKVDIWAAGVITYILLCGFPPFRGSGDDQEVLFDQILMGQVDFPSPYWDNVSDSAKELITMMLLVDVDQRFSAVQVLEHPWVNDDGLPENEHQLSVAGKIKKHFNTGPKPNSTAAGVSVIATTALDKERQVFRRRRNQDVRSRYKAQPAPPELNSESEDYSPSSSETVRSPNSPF

Study 1
SMILES: CC(=O)C1=C(C)N(c2cccc(C(F)(F)F)c2)C(=O)N[C@@H]1c1ccc(C#N)nc1
Tested at: 1 µM
It gave 85.1% for remaining binding (Serine/threonine-protein kinase DCLK1 (DCLK1, Homo sapiens, UniProt O15075); cell-free assay, competition with immobilised ligand).
Receptor tyrosine-protein kinase erbB-4 (ERBB4, Homo sapiens, UniProt Q15303); cell-free assay, competition with immobilised ligand — remaining binding: 90.8%.
For Myosin-IIIb (MYO3B, Homo sapiens, UniProt Q8WXR4); binding, competition with immobilised ligand: remaining binding read 78.3%.
Serine/threonine-protein kinase SIK1 (SIK1, Homo sapiens, UniProt P57059); competition binding — remaining binding: 100%.
For Myosin-IIIa (MYO3A, Homo sapiens, UniProt Q8NEV4); binding, competition with immobilised ligand: remaining binding read 85.1%.
NT-3 growth factor receptor (NTRK3, Homo sapiens, UniProt Q16288); cell-free assay, competition with immobilised ligand — remaining binding: 100%.
For Serine/threonine-protein kinase BRSK2 (BRSK2, Homo sapiens, UniProt Q8IWQ3); cell-free assay, competition with immobilised ligand: remaining binding read 100%.
The remaining binding was 100% (Tyrosine-protein kinase FRK (FRK, Homo sapiens, UniProt P42685); cell-free assay, competition with immobilised ligand).
It gave 82.5% for remaining binding (Serine/threonine-protein kinase MAK (MAK, Homo sapiens, UniProt P20794); cell-free assay, competition with immobilised ligand).
For Activin receptor type-2A (ACVR2A, Homo sapiens, UniProt P27037); cell-free assay, competition with immobilised ligand: remaining binding read 85.7%.

Study 2
Target: ABI1, truncated, D143A, DHFR fusion (Arabidopsis thaliana, UniProt P49597)
Method: DHFR PCA, dose-response
Sample: yeast
Notes: Hill fit, not affinity, not high confidence
Added: (+)-ABA, dose series
Reading: lower = more sensitive
Starting sequence: PYL1, truncated, DHFR fusion (Arabidopsis thaliana, UniProt Q8VZS8); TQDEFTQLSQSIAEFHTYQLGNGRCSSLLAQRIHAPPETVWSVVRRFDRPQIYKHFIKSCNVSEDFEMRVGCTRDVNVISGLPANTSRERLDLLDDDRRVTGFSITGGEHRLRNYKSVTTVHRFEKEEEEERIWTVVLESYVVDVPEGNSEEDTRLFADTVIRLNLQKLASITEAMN
With `A84K` the ABA EC50 was 0.112 µM.
For `H16P`, the ABA EC50 was 141 µM.
For `P50D`, the ABA EC50 was 109 µM.
`S27I` has an ABA EC50 of 474 µM.
`I57H` gave an ABA EC50 of 176 µM.
`S87K` has an ABA EC50 of 3.44 µM.
For `T120I`, the ABA EC50 was 1850 µM.
`I105K` gave an ABA EC50 of 18.4 µM.

Study 3
Target: G protein-coupled receptor kinase 4 (GRK4, Homo sapiens, UniProt P32298)
Chain of UniProt P32298 (whole entry, looked up): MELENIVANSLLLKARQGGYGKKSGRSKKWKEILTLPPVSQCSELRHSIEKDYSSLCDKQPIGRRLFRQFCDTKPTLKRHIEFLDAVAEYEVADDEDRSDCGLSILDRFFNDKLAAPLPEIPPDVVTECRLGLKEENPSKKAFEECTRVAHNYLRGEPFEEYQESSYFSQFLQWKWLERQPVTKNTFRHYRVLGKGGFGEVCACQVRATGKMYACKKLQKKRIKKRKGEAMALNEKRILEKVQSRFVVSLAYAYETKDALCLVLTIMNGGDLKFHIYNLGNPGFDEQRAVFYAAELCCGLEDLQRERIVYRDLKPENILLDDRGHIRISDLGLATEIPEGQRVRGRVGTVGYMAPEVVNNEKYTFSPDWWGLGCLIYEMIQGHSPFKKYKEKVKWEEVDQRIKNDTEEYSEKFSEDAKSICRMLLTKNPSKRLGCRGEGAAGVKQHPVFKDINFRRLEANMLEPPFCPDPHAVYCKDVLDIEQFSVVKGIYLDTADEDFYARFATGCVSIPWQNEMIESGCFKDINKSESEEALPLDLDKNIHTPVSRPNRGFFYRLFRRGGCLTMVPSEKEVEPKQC
Read-out: enzyme activity
Action: inhibitor
Tested at: 0.5 µM
Baseline: control
The remaining activity of `Cc1nc(-c2ccccc2)c(-c2ccncc2)o1` is reported as 94.3%.
The remaining activity of `Nc1[nH]nc2nc3ccccc3nc12` is reported as 98.9%.
`Cn1sc(=O)n(Cc2ccccc2)c1=O` gave a remaining activity of 101%.
`COc1cc2nccc(Oc3ccc(NC(=S)NC(=O)c4ccccc4C)cc3)c2cc1OC` gave a remaining activity of 95.9%.
The remaining activity of `Nc1ccc2ncnc(NCCc3ccc(Oc4ccccc4)cc3)c2c1` is reported as 99.6%.
`Cc1ccc(NC(=O)c2ccc(CN3CCN(C)CC3)cc2)cc1Nc1nc(-c2cccnc2)cs1` has a remaining activity of 108%.
For `Cn1c2ccccc2c2c3c(c4c5ccccc5n(CCC#N)c4c21)CNC3=O`, the remaining activity was 75.1%.
`C#Cc1cccc(Nc2ncnc3cc(OCCOC)c(OCCOC)cc23)c1` has a remaining activity of 89.6%.
For `CCOC(=O)c1c(C)[nH]c(/C=C2\C(=O)Nc3ccccc32)c1C`, the remaining activity was 82.9%.
For `O=C1NC(=O)C(c2cn(CCCO)c3ncccc23)=C1c1cnccn1`, the remaining activity was 90.1%.
With `N#CC(C#N)=C(N)/C(C#N)=C/c1ccc(O)cc1` the remaining activity was 99.6%.
The remaining activity of `COc1ccc(OC)c2c(=S)c3ccccc3[nH]c12` is reported as 103%.

Study 4
Target: Prothrombin, mature alpha-thrombin (F2, Homo sapiens, UniProt P00734)
Method: aptamer microarray, sandwich
Form: DNA with 2'F-ANA
Sample: in vitro
Tested at: 200 nM
Notes: whole 15-mer aptamer, many near background
Added: Cy3 exosite-II aptamer, 400 nM
Reading: higher = stronger binding
Sequence: GGTTGGTGTGGTTGG
`2'F-ANA at 2 4 5 7 8 10 13 14 15`: “mean fluorescence intensity” 46.5 a.u.
`2'F-ANA at 5 14`: “mean fluorescence intensity” 43.5 a.u.
Under “mean fluorescence intensity”, `2'F-ANA at 1 2 3 4 5 7 11 13 14` is recorded as 82.6 a.u.
`2'F-ANA at 2 6 10 13 14 15`: “mean fluorescence intensity” 74.3 a.u.
`2'F-ANA at 1 2 3 4 5 7 8 11 14 15` — result for “mean fluorescence intensity”: 48 a.u.
For `2'F-ANA at 2 3 6 7 10 15`, “mean fluorescence intensity” read 356 a.u.
For `2'F-ANA at 5 6 9 10 11 12 14 15`, “mean fluorescence intensity” read 48.7 a.u.
Under “mean fluorescence intensity”, `2'F-ANA at 1 3 14` is recorded as 93 a.u.
